Measured values from different studies.
Every numbered part comes from another study and shows a few of its results, in no order. Several values in a cell are separate wells, animals, samples, runs or records.
Sequence of UniProt P47898 (whole entry, looked up): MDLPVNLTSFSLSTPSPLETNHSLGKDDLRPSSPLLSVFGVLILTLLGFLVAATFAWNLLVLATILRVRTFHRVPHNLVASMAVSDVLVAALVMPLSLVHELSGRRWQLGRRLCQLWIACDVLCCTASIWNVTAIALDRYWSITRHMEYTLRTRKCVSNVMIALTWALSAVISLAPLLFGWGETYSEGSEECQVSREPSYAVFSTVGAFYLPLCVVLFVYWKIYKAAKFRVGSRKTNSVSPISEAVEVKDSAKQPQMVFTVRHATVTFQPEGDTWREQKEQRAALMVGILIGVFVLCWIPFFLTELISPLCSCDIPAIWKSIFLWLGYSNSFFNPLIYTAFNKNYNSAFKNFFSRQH
Sequence of UniProt P21917 (whole entry, looked up): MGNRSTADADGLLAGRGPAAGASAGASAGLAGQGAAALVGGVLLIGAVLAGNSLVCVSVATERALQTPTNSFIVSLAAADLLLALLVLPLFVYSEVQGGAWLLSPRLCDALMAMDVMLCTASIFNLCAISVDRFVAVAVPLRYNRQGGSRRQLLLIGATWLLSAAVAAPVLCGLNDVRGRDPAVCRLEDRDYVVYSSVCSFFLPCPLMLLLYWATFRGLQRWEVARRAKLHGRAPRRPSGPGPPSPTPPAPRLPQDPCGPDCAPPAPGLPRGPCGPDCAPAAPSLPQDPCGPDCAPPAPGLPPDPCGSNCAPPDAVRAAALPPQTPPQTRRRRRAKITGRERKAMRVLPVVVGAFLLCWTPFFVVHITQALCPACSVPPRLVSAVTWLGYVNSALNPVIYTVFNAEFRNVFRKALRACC
Sequence of UniProt P28221 (whole entry, looked up): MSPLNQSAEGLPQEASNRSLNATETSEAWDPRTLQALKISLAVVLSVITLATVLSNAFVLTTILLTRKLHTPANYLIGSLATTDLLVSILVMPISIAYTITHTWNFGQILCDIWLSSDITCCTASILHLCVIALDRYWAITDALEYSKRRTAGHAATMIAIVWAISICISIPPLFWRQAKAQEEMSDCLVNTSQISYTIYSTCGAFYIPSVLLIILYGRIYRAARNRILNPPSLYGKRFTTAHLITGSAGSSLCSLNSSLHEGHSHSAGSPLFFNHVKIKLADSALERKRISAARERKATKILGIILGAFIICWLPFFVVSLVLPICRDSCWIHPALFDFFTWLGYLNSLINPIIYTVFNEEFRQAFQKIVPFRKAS

Block 1 — observed: enzyme activity; action: inhibitor; tested at: 0.5 µM; baseline: control
Target: Tyrosine-protein kinase Blk (BLK, Homo sapiens, UniProt P51451)
Sequence of UniProt P51451 (whole entry, looked up): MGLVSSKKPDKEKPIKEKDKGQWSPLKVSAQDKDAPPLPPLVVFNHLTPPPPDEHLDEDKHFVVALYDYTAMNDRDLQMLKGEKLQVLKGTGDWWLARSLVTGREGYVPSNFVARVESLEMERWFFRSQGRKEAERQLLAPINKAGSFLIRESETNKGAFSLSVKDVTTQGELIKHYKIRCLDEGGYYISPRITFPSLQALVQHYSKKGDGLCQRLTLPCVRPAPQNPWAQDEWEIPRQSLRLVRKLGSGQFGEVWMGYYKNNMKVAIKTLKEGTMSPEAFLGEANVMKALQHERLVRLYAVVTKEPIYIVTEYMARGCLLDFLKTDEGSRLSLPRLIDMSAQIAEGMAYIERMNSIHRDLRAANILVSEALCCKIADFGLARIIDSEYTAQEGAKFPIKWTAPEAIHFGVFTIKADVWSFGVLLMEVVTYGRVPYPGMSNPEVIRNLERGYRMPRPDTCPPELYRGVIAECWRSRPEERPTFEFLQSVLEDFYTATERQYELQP
| Structure (SMILES) | remaining activity [%] |
| --- | --- |
| CCOC(=O)c1c(C)[nH]c(/C=C2\C(=O)Nc3ccccc32)c1C | 80.2 |
| Cn1sc(=O)n(Cc2ccccc2)c1=O | 101 |
| CNC(=O)c1cc(Oc2ccc(NC(=O)Nc3ccc(Cl)c(C(F)(F)F)c3)cc2)ccn1 | 99.1 |
| COc1ccc(C(=O)Nc2sc3c(c2C(N)=O)CCCC3)cc1OC | 102 |
| O=S(=O)(c1cccc2cnccc12)N1CCCNCC1 | 85.3 |
| Cc1nc(-c2ccccc2)c(-c2ccncc2)o1 | 95.4 |
| Nc1ccc2ncnc(NCCc3ccc(Oc4ccccc4)cc3)c2c1 | 97.1 |
| COc1cc2nccc(Oc3ccc(NC(=S)NC(=O)c4ccccc4C)cc3)c2cc1OC | 8.59 |
| COc1ccc(OC)c2c(=S)c3ccccc3[nH]c12 | 96.5 |
| CO[C@H]1C[C@@H]2CC[C@@H](C)[C@@](O)(O2)C(=O)C(=O)N2CCCC[C@H]2C(=O)O[C@H]([C@H](C)C[C@@H]2CC[C@@H](O)[C@H](OC)C2)CC(=O)[C@H](C)/C=C(\C)[C@@H](O)[C@@H](OC)C(=O)[C@H](C)C[C@H](C)/C=C/C=C/C=C/1C | 94.8 |
| COc1cc2ncnc(Nc3ccc(Oc4ccccc4)cc3)c2cc1OC | 9.95 |
| CC(C)[C@H](CO)Nc1nc(Nc2cc(N)cc(Cl)c2)c2ncn(C(C)C)c2n1 | 79.6 |
| Cc1ccc(NC(=O)c2ccc(CN3CCN(C)CC3)cc2)cc1Nc1nc(-c2cccnc2)cs1 | 57.5 |

Block 2 — action: agonist
Target: Beta-1 adrenergic receptor (ADRB1, Homo sapiens, UniProt P08588)
Sequence of UniProt P08588 (whole entry, looked up): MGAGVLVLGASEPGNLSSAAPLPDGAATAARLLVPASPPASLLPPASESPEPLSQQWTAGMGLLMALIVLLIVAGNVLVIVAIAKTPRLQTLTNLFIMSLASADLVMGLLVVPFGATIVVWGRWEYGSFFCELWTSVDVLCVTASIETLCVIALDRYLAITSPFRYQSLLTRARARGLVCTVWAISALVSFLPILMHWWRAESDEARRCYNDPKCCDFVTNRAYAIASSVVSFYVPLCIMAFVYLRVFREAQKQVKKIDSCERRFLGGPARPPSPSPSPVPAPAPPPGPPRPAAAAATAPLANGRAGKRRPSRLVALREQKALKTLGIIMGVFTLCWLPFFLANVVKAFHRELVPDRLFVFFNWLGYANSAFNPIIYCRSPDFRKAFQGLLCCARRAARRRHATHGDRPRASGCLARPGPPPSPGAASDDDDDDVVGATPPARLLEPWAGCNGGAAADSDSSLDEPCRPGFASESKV
| SMILES | EC50 [µM] |
| --- | --- |
| OC(c1ccccc1)c1cn(C2CCN(Cc3cnc4ccccc4c3)CC2)nn1 (stereo not shown) | ≥ 100 |
| Cc1ncc(-c2ccc(F)c3cccnc23)nc1C | ≥ 100 |
| N#Cc1ccc(C(O)CN2CC=C(C3=NNC(=O)CC3)CC2)cc1 (stereo not shown) | ≥ 100 |
| CCN1CC(C(=O)NCC2CCN(c3ccccc3OC)C2)CC1=O (stereo not shown) | ≥ 100 |
| CN1CCN(CC(O)COc2ccc(CN3CC(c4ccccn4)C3)cc2)CC1 (stereo not shown) | ≥ 100 |

Block 3 — organism: Sarcocystis neurona; observed: parasite growth; tested at: 10 µM; time: 96 h; notes: first screen; baseline: untreated
| Structure (SMILES) | log2 fold change |
| --- | --- |
| CCCNCC(O)COc1ccccc1C(=O)CCc1ccccc1 (stereo not shown) | -1.63 |
| CC(=O)OCC(=O)[C@@]1(O)CC[C@H]2[C@@H]3CCC4=CC(=O)C=C[C@]4(C)[C@H]3[C@@H](O)C[C@@]21C | 0.21 |
| c1cnc(N2CCN(Cc3ccc4c(c3)OCO4)CC2)nc1 | 0.25 |
| c1ccc2[nH]c(-c3cscn3)nc2c1 | 1.88 |
| CC/C(=C(\c1ccccc1)c1ccc(OCCN(C)C)cc1)c1ccccc1 | -0.35 |

Block 4 — tested at: 10 µM
Structure (SMILES): N#CN1CC[C@@H](C(=O)Nc2nc3c(s2)CN(C(=O)CN=[N+]=[N-])CC3)C1
| target | observed | method | inhibition [%] |
| --- | --- | --- | --- |
| DRD4 (Homo sapiens, UniProt P21917) | binding | radioligand binding | 5.53 |
| HTR1D (Homo sapiens, UniProt P28221) | cell-free assay | – | 20.9 |
| ADRB1 (Homo sapiens, UniProt P08588) | binding | radioligand binding | 3.17 |
| HTR5A (Homo sapiens, UniProt P47898) | cell-free assay | – | 9.64 |

Single results of other studies
| SMILES | assay | test system | conditions | scale | endpoint | result |
| --- | --- | --- | --- | --- | --- | --- |
| CC(=O)N[C@@H](Cc1c[nH]c2ccccc12)C(=O)N[C@@H](CCC(=O)C=[N+]=[N-])C(=O)OC(C)C | UPLC-MS/MS | EL4 tumor, C57BL/6 CES1-/- mice, tumor | subcutaneous, 0.3 mg/kg DON equivalent daily, 5 days | higher = more metabolite | riboflavin level | 364000 a.u. and 377000 a.u. and 450000 a.u. and 300000 a.u. and 125000 a.u. and 400000 a.u. |

Some of these lines once more (block 2):
| SMILES | EC50 [µM] |
| --- | --- |
| Cc1ncc(-c2ccc(F)c3cccnc23)nc1C | ≥ 100 |
